Assay results from different studies.
A part holds a random share of what one study measured. Substitutions count along the parent as printed.

Study 1 — method: RNA Bind-n-Seq; form: RNA; matrix: in vitro; concentration: 100 nM; reference: input RNA pool; direction: higher = stronger binding
Target: RING finger protein unkempt homolog, zinc fingers 1-6, SBP tag (UNK, Homo sapiens, UniProt Q9C0B0, residues 30-357)
Sequence of UniProt Q9C0B0 (30-357, looked up): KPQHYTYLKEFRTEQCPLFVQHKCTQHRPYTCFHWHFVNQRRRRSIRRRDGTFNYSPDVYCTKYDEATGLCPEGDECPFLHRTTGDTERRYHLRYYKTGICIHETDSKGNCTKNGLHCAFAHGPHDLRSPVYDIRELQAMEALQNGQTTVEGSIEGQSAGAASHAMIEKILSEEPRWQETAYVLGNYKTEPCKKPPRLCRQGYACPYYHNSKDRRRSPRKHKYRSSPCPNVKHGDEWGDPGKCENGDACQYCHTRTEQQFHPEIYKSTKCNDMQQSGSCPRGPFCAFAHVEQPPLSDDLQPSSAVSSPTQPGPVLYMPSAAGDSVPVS
Notes: RNA with constant flanks, vertebrate orthologous sites, ends assumed
Shared flanks, not repeated: GGGAGUUCUACAGUCCGACGAUC … CAACAGAGGAUUGAGCAUCA
The bound/input enrichment of `UUUAAAGUCAUUUUUUCACGUUUCCUGUAAAUAAUGGAUAAUCAUUUUUAUUUUAUUUUUAAGUGCUGUUUUAACAAUGUGGAUAGACCAUAAAUGUACUUGCUGAAUUCAUUCAUUUUU` is reported as 0.497 ratio.
With `GUUAGGUCAUGACCCUUACAGAUUAGGUCAUGAUGCCUAUAGGUUAGGGCAGGACCCCUAUAGAUUAGGCCACGAUCCCUACAGACUAACACCUGAUCCCUAUAGAAUGUCACCUAGACC` the bound/input enrichment was 0.565 ratio.
With `CUUCAACUGGUAUUUUCAAAGGACCACAGGAAACUUUCUUUUUUCUUUUUUUUACAGUUUAGUCCUGUCUGGUUUCUACAUGGAAGACUGAAACUUUCAUGCUUAUUGUUAAAUGUGUUU` the bound/input enrichment was 0.58 ratio.
For `UUUUAUUGAUCAGGUCUGUAAAUGUGUACUACAAAAAUCAGAGUUUAUUUAUAAACAGAAUAGUUUAUUUAAAGCGAAGGCCUUUCCUCAUCAAUAUCGUGGUAUGCAUUGAUUCCAUUC`, the bound/input enrichment was 0.215 ratio.
The bound/input enrichment of `AAAUUUAUUUCAUGCCAUGGACCCCGUAUCGUACGGACACCUUGAUAGAAUAUGCUUCUUUGGAGGACUUCCAAAACAGCCGCCAAACAACAACAUAUAAACUUCCCAAUCGGGUAGAUG` is reported as 0.554 ratio.
`AUUGCCUACAAUAAUGAAAACCUACAGGAAUUUUUUAUUUUUCAUUUUCCCCUUAGGCAUAGUCUUUUUUCCCCAGGCAGAUCAUUCUGAGUGUGCGAGUGUGUGUGCACAUGUUACAAA` gave a bound/input enrichment of 0.785 ratio.
With `CCAGUCUUCCACAUAGGGUCAGCCUCAAAUCUAUAGGAUUUUUGACAAAUGUAUUAUAUCUAGUUGUGUUGAAUUUAGUAUUUUUUUAUUAGCCUGUAAAUAAAGAUGGCCUCUCCUACA` the bound/input enrichment was 2.41 ratio.
`CUGAAGCUUUGUGUUUGGCUGCACCUGCAUAAGCUGCUACAAAUAGAAUAAAGAAUUUCAUAGCCUGUAUCUAUCAUUUAGAUGCAUGGAAAAAUGGGCUUUGCACACAAUGGGUUUGGA` has a bound/input enrichment of 2.48 ratio.

Study 2 — method: DHFR PCA, deep sequencing; matrix: yeast; with: (+)-ABA 0.032 µM; reference: wild-type fitted maximum; direction: higher = stronger binding
Target: ABI1, truncated, D143A, DHFR fusion (Arabidopsis thaliana)
Notes: methotrexate growth selection, single substitutions
Starting sequence: PYL1, truncated, DHFR fusion (Arabidopsis thaliana); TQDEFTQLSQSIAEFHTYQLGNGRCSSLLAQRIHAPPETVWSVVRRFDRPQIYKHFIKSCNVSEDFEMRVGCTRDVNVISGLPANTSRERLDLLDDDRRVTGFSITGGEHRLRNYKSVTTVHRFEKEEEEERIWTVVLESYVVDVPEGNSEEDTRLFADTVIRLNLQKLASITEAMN
For `A158R`, “relative binding score” read 2.15%.
Under “relative binding score”, `N22C` is recorded as 8.46%.
For `A84E`, “relative binding score” read 19.5%.
Under “relative binding score”, `V76R` is recorded as -1.61%.
`N114G`: “relative binding score” 7.68%.
`V142E` — result for “relative binding score”: 4.84%.
`F66G`: “relative binding score” 11.7%.
`A30D` — result for “relative binding score”: 2.33%.
Under “relative binding score”, `P50G` is recorded as -3.16%.
For `K58R`, “relative binding score” read 18.9%.
Under “relative binding score”, `T120P` is recorded as 9.14%.
For `A35T`, “relative binding score” read 0.639%.
`E128K`: “relative binding score” 24.2%.
`V118F` — result for “relative binding score”: -2.42%.
For `I12L`, “relative binding score” read 1.91%.
Under “relative binding score”, `T1G` is recorded as 19.4%.
`L94D` — result for “relative binding score”: 3.09%.
`S171Q` — result for “relative binding score”: 38.7%.
Under “relative binding score”, `V161H` is recorded as 39.6%.
For `E109R`, “relative binding score” read 1.12%.

Study 3 — target: CREBL2, bZIP domain (human); method: DHFR protein complementation; matrix: yeast; reference: wild-type JUN-FOS pair; direction: higher = stronger binding
Notes: single substitutions, most at no-binding floor
Starting sequence: JUN, bZIP domain (human); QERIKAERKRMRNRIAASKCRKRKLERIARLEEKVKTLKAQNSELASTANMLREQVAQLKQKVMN; partner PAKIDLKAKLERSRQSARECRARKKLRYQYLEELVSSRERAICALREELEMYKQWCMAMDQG
`T48A` gave a binding fitness of -1.32 natural log.
`N42S` gave a binding fitness of -1.5 natural log.
`A49F` has a binding fitness of -1.24 natural log.
The binding fitness of `V35E` is reported as -1.57 natural log.
The binding fitness of `E54I` is reported as -1.3 natural log.
`N42P` gave a binding fitness of -1.49 natural log.
With `E44F` the binding fitness was -1.52 natural log.
With `E44W` the binding fitness was -1.44 natural log.
`R53N` gave a binding fitness of -1.25 natural log.
For `L31T`, the binding fitness was -1.54 natural log.
`K39L` gave a binding fitness of -1.54 natural log.
For `R53A`, the binding fitness was -1.53 natural log.
With `A29T` the binding fitness was -1.45 natural log.
For `E54W`, the binding fitness was -1.47 natural log.
`A49Q` has a binding fitness of -1.44 natural log.
With `N42R` the binding fitness was -1.48 natural log.
The binding fitness of `S43Y` is reported as -1.44 natural log.

Study 4 — target: CCNA2, cyclin fold, Cln2 fusion (human); method: yeast growth competition, sequencing; matrix: yeast; notes: strong parent motif; reference: not given; direction: higher = stronger binding
Starting sequence: SCAPER docking peptide (human); SNARRSLNFGGST
`SNARRSLNFGGGT [S12G]` — result for “normalised enrichment score”: 6.25.
For `SNARASLNFGGST [R5A]`, “normalised enrichment score” read 1.11.
Under “normalised enrichment score”, `SNARRSLNFDGST [G10D]` is recorded as 5.78.
For `SNARRALNFGGST [S6A]`, “normalised enrichment score” read 6.99.
For `SNARRSLAFGGST [N8A]`, “normalised enrichment score” read 4.52.
For `SNARRSLNFIGST [G10I]`, “normalised enrichment score” read 4.69.
`SNNRRSLNFGGST [A3N]`: “normalised enrichment score” 1.74.
For `SNARYSLNFGGST [R5Y]`, “normalised enrichment score” read 0.56.
`SNCRRSLNFGGST [A3C]`: “normalised enrichment score” 5.97.
For `SNAQRSLNFGGST [R4Q]`, “normalised enrichment score” read 2.45.
`SNARRSLNFGNST [G11N]` — result for “normalised enrichment score”: 5.91.
`SNARRSLNFGFST [G11F]`: “normalised enrichment score” 6.18.
Under “normalised enrichment score”, `ANARRSLNFGGST [S1A]` is recorded as 6.26.
Under “normalised enrichment score”, `SNARRSLNFNGST [G10N]` is recorded as 5.76.
For `SNARRSLNFGGSN [T13N]`, “normalised enrichment score” read 7.02.
`SNARRSLNFKGST [G10K]` — result for “normalised enrichment score”: 5.45.
`SNARRSLNFAGST [G10A]`: “normalised enrichment score” 5.64.
`SNANRSLNFGGST [R4N]` — result for “normalised enrichment score”: 1.92.
Under “normalised enrichment score”, `SNARDSLNFGGST [R5D]` is recorded as -0.0331.
`SNARRSLNFLGST [G10L]`: “normalised enrichment score” 4.96.
`SYARRSLNFGGST [N2Y]`: “normalised enrichment score” 5.11.

Study 5 — method: RNA Bind-n-Seq; form: RNA; matrix: in vitro; concentration: 200 nM; notes: whole 134-nt RNA, ends assumed; with: 150 mM KCl; reference: input library; direction: higher = stronger binding
Target: Ras GTPase-activating protein-binding protein 1, full length (G3BP1, Homo sapiens, UniProt Q13283)
Sequence of UniProt Q13283 (whole entry, looked up): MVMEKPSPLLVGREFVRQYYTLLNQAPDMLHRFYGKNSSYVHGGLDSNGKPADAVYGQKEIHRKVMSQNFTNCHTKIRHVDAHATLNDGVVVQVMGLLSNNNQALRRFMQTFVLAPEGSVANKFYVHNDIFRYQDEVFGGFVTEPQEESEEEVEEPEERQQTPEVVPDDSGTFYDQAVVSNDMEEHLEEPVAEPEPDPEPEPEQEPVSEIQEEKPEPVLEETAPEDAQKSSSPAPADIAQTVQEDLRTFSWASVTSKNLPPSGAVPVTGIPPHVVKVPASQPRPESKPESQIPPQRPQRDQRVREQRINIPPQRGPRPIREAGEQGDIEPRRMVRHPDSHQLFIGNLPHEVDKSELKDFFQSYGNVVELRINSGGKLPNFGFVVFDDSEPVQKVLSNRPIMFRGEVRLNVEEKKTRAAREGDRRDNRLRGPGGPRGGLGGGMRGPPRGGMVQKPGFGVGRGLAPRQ
Shared flanks, not repeated: GGGAGUUCUACAGUCCGACGAUC … UGGAAUUCUCGGGUGUCAAGG
`UGGCCCUGGUGGCAAGCGGGGAGGAAGAGGUGGCCUCAUGGAUCGUGGUGGUCCCGGUGGAAUGUUCAGAGGUGGCCGUGGUGGAGACAG` gave a log2 enrichment of 0.21.
For `UAACUUUAUAGGAGGAUCUGAUGGAUAUGGCAGUGGACGUGGAUUUGGGGAUGGCUAUAAUGGGUAUGGAGGAGGACCUGGAGGUGGCAA`, the log2 enrichment was 0.294.
The log2 enrichment of `UCCUCAAGUCCUGUGCUACACAUCGUAUGUACCGAAUCGGCGGGCGGCGGGAAAGUAUUAUGUUACGCCGUUCGGAUCUGCACUUCCAGC` is reported as -0.323.
`GCAGGAAGUAAAAACAAAUGGAAAUGCUUCGAAAAGUGGCAGGGGUGGGGGUUGCUAAGGAAAGGGUGGGAUGGGAGUGGGUAAAGAGUU` has a log2 enrichment of 0.772.
`AAGUCCUGUGCUACACAUCGUAUGUACCGAAUCAAAUUUAAACCCCCAAACCCAAAAAAGUAUUAUGUUACGCCGUUCGGAUCUGCACUU` has a log2 enrichment of -0.47.
The log2 enrichment of `CACAGACAACACGCACCCACACAGACACAGAGGGAAGGGGUUGGGAUGGGGACAGGGUGCACAGCAGGGGGGGGUAGGACCCCAGCCCCU` is reported as 1.72.
With `GUCCUGUGCUACACAUCGUAUGUACCGAAUCGGGUUUUUGGGUUUUUUUGGGAAAGGGAAAGUAUUAUGUUACGCCGUUCGGAUCUGCAC` the log2 enrichment was -0.473.
For `GUCCUGUGCUACACAUCGUAUGUACCGAAUCGGGGAAAAAAGGAAAAAAGGAAAAAAGGAAAGUAUUAUGUUACGCCGUUCGGAUCUGCA`, the log2 enrichment was -0.855.
`GUCCUGUGCUACACAUCGUAUGUACCGAAUCGGGGUUUUUGGUUUUUGGUUUUUGGGGAAAGUAUUAUGUUACGCCGUUCGGAUCUGCAC` has a log2 enrichment of -0.787.
